Assay results collected from several papers.
Every numbered part comes from another study and shows a few of its results, in no order.
Sequence of UniProt Q9Y5S2 (whole entry, looked up): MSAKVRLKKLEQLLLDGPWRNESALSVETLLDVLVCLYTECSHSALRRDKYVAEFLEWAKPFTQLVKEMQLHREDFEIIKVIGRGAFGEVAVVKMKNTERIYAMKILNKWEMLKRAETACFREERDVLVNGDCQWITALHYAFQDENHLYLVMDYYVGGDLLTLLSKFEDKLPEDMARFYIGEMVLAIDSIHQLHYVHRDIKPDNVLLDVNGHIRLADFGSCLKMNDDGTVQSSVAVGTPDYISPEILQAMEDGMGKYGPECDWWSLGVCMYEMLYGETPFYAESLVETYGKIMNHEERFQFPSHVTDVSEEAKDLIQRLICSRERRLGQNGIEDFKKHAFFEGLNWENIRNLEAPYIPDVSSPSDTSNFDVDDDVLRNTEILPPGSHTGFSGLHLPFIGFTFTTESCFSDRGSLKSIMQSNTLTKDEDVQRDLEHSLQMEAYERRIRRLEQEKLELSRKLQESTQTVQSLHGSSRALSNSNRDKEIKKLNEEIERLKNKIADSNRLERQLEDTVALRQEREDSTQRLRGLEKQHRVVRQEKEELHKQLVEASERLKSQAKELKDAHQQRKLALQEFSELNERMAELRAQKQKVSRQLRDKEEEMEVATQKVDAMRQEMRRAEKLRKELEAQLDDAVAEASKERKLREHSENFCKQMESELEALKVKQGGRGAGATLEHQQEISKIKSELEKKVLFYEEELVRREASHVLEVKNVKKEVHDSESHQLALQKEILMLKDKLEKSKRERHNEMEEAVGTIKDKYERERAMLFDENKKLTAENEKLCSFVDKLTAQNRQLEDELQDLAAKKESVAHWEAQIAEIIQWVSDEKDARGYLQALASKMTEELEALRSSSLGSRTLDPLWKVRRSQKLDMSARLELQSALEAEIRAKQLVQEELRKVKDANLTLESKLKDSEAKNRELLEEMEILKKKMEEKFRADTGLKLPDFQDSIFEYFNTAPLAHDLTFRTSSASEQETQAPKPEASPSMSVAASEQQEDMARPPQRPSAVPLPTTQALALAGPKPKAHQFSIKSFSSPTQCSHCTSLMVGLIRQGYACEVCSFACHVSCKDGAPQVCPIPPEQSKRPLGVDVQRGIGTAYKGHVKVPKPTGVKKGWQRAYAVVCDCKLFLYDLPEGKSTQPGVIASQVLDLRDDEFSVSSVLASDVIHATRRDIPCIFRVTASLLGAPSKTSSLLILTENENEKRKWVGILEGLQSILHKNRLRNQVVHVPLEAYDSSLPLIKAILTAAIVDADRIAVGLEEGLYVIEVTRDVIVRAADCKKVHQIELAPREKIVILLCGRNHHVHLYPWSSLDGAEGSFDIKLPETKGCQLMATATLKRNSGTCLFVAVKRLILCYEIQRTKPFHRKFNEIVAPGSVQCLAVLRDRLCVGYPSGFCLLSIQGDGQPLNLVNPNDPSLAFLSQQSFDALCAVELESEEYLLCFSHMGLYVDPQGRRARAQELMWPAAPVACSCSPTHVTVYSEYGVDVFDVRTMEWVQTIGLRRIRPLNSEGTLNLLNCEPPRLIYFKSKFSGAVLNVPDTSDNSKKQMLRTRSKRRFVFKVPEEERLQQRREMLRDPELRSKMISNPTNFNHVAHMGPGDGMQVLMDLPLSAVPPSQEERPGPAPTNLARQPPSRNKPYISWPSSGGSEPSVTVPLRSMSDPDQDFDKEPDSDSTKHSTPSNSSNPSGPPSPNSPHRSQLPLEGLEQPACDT
Sequence of UniProt Q16539 (whole entry, looked up): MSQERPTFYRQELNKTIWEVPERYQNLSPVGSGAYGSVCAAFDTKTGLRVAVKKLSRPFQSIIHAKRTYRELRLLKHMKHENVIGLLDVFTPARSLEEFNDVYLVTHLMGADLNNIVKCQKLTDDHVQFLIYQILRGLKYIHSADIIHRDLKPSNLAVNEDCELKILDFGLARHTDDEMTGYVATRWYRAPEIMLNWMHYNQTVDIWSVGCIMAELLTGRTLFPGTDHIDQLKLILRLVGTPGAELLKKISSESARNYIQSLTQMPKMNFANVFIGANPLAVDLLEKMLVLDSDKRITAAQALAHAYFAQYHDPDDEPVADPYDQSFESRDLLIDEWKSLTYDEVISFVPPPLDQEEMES
Sequence of UniProt P50750 (whole entry, looked up): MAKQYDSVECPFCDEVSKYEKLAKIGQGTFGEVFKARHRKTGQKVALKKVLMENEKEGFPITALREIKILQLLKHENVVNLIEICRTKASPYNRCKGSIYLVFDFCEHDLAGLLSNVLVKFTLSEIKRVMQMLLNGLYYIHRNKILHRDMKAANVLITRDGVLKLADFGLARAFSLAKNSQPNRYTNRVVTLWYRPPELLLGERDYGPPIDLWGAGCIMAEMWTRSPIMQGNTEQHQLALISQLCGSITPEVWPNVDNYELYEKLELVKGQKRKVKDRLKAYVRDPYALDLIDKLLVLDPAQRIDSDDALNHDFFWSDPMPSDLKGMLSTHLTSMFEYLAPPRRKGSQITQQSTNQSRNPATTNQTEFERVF
Sequence of UniProt P51956 (whole entry, looked up): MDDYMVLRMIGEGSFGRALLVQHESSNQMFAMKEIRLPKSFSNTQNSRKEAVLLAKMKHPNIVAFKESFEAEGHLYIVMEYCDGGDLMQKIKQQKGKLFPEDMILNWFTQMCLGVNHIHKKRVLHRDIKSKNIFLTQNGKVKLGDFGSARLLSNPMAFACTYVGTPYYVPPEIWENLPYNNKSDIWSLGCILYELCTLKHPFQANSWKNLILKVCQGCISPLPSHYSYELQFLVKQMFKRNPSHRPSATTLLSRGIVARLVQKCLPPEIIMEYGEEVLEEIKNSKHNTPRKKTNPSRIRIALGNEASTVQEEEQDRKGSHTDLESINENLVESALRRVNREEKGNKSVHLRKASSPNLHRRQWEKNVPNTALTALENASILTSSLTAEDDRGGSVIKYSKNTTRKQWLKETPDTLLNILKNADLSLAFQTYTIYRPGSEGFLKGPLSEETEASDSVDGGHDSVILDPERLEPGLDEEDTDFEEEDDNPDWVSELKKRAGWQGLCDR
Sequence of UniProt O14976 (whole entry, looked up): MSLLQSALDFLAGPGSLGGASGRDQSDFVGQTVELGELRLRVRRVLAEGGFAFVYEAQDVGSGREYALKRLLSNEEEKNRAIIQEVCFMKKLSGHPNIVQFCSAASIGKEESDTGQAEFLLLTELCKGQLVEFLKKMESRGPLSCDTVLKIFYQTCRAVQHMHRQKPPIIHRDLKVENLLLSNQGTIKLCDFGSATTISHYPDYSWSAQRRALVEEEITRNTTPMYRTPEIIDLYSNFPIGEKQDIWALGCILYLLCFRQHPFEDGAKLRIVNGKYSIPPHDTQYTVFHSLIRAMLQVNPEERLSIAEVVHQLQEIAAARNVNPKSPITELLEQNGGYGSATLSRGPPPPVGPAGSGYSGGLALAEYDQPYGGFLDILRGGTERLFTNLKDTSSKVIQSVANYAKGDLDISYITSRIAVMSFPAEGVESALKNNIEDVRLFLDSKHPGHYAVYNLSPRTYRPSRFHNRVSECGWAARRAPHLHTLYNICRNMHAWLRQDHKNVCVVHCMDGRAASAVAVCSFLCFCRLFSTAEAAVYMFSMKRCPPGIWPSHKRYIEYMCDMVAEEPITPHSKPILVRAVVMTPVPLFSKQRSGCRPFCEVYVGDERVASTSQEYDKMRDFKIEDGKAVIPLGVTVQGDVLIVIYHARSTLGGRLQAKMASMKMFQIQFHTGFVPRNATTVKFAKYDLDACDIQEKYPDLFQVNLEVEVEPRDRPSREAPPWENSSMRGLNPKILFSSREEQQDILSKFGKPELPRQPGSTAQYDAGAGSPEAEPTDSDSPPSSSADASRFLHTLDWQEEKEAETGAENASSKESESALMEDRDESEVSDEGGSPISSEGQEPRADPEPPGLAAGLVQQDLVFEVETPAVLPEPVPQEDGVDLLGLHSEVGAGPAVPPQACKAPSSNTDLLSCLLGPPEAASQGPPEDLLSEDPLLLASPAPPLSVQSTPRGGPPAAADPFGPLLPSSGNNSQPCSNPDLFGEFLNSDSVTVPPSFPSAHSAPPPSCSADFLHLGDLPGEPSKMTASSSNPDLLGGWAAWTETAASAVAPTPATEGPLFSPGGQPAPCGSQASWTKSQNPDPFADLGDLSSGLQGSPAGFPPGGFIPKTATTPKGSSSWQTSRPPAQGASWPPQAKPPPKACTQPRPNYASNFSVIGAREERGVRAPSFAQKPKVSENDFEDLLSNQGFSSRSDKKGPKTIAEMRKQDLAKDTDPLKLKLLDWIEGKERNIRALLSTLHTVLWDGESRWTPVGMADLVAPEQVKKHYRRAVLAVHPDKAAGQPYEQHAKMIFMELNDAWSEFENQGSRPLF
Sequence of UniProt Q16566 (whole entry, looked up): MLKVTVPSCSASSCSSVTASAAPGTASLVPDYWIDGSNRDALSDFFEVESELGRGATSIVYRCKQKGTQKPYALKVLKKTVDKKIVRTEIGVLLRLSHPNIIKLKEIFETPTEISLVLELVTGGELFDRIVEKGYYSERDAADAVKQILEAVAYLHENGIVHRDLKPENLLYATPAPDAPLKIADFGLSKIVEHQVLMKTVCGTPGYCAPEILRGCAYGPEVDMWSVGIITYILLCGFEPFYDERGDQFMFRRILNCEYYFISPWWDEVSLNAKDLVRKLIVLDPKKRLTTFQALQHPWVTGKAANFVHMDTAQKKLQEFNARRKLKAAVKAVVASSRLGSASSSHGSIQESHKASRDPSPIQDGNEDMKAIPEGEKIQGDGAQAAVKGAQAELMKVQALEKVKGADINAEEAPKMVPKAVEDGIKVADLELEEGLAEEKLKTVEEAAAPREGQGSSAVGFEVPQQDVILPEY
Sequence of UniProt P11802 (whole entry, looked up): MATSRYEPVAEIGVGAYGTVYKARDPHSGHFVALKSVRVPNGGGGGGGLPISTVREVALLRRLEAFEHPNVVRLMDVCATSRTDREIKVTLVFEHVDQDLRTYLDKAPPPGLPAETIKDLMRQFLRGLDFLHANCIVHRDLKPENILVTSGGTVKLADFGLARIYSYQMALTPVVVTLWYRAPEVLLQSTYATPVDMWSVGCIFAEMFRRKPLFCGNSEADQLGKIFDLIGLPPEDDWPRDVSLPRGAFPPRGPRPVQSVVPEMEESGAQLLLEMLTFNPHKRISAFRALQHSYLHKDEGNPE

Series 1
SMILES: c1ccc(-c2cnc(Nc3ccc(OCCN4CCCC4)cc3)s2)cc1
Read-out: enzyme activity
Mode: inhibitor
Concentration: 0.5 µM
Baseline: control
target	remaining activity
CDC42BPB (Homo sapiens, UniProt Q9Y5S2)	96.7%
MET (Homo sapiens, UniProt P08581)	89.7%
ROCK1 (Homo sapiens, UniProt Q13464)	102%
CAMK4 (Homo sapiens, UniProt Q16566)	97.2%
Cyclin-dependent kinase 9, with cyclin K (CDK9, Homo sapiens, UniProt P50750)	39.8%
RPS6KA4 (Homo sapiens, UniProt O75676)	96.1%
PLK3 (Homo sapiens, UniProt Q9H4B4)	98%
MINK1 (Homo sapiens, UniProt Q8N4C8)	38.7%
MARK4 (Homo sapiens, UniProt Q96L34)	58.9%
PNCK (Homo sapiens, UniProt Q6P2M8)	99.8%
PAK3 (Homo sapiens, UniProt O75914)	99.1%
MAPK14 (Homo sapiens, UniProt Q16539)	103%
Cyclin-dependent kinase 1, with cyclin A (CDK1, Homo sapiens, UniProt P06493)	95.2%
NEK3 (Homo sapiens, UniProt P51956)	92.9%

Series 2
Structure (SMILES): O=C(Nc1ccc(Oc2ccc(F)cc2)cc1)N1CCc2ncccc2[C@H]1c1ccc(F)cc1
Read-out: cell-free assay
Technique: competition with immobilised ligand
Concentration: 1 µM
target	remaining binding
PKN2 (Homo sapiens, UniProt Q16513)	80%
EPHA1 (Homo sapiens, UniProt P21709)	100%
RIOK3 (Homo sapiens, UniProt O14730)	96%
CAMK1 (Homo sapiens, UniProt Q14012)	70%
LYN (Homo sapiens, UniProt P07948)	95%
Tyrosine-protein kinase JAK3, JH1 (JAK3, Homo sapiens, UniProt P52333)	100%
TNNI3K (Homo sapiens, UniProt Q59H18)	100%
DSTYK (Homo sapiens, UniProt Q6XUX3)	100%
Cyclin-dependent kinase 4, with cyclin D3 (CDK4, Homo sapiens, UniProt P11802)	94%
CDK14 (Homo sapiens, UniProt O94921)	94%
STK38L (Homo sapiens, UniProt Q9Y2H1)	76%
GAK (Homo sapiens, UniProt O14976)	89%

Series 3
Cell line: mouse MPNST tumor cells
Technique: high-content nuclear imaging
Item: cell number
Concentration: 10 µM
Time: 12 h
Notes: mean of 2 replicates
Baseline: plate mean
Reading: higher = more cells
Compound	nuclei count
O=C(O)P(=O)(O)O	1.75 z-score
CN(C)C(=O)NC1(c2ccccc2)CCN(CCC[C@]2(c3ccc(Cl)c(Cl)c3)CCCN(C(=O)c3ccccc3)C2)CC1	-6.37 z-score
CCc1nc2c(o1)CC(c1ccc(C)cc1C)CC2=O (racemic)	0.771 z-score
Cc1nc2c(O)cccc2c(=O)[nH]1	1 z-score
CN1c2cc3c(cc2N=C(c2ccc(C(=O)O)cc2)c2ccccc21)C(C)(C)CCC3(C)C	-0.929 z-score
CC[N+](C)(CC)CCOC(=O)C1c2ccccc2Oc2ccccc21	0.751 z-score
O=C(O)c1ccccc1C(=O)Nc1ccc(-c2ccccc2)cc1	1.9 z-score
N=C(N)NCc1cccc(I)c1	1.48 z-score
Oc1ccc(OCc2ccccc2)cc1	-2.98 z-score
Cn1cc(-c2[nH]c3cc(NC(=O)[C@H](N)C4CCCCC4)cc4c3c2C=NNC4=O)cn1	-2.38 z-score
O=C(O)C1(C(=O)O)CCC1.[NH2-].[NH2-].[Pt+2]	1.08 z-score
CNCc1ccccc1-c1csc([C@@H](C)Nc2nc(C)nc3cc(OC)c(OC)cc23)c1	-5.36 z-score
Cc1ccsc1/C=C/C1=NCCCN1C	0.552 z-score

Series 4
Cell line: HaCaT
Concentration: 100 µM
Time: 18 h
SMILES	viability
NC(=O)c1ncn([C@@H]2O[C@H](CO)[C@@H](O)[C@H]2O)c1O	111%
Cc1ccc(Nc2nccc(N(C)c3ccc4c(C)n(C)nc4c3)n2)cc1S(N)(=O)=O	22.3%
CC(C(O)c1ccc(O)cc1)N1CCC(Cc2ccccc2)CC1 (centres unmarked)	80.2%
N#Cc1ccc(C(c2ccc(C#N)cc2)n2cncn2)cc1	110%
CCCCCCCCCCCCCCCC[N+](C)(C)CCN(Cc1ccc(OC)cc1)c1ncccn1	18.3%
CCOC(=O)C1=C(COCCN)NC(C)=C(C(=O)OC)C1c1ccccc1Cl (centres unmarked)	18.1%
CO[C@H]1/C=C/O[C@@]2(C)Oc3c(C)c(O)c4c(O)c(c(/C=N/N5CCN(C6CCCC6)CC5)c(O)c4c3C2=O)NC(=O)/C(C)=C\C=C\[C@H](C)[C@H](O)[C@@H](C)[C@@H](O)[C@@H](C)[C@H](OC(C)=O)[C@@H]1C	86.1%
COc1cc(NS(C)(=O)=O)ccc1Nc1c2ccccc2nc2ccccc12	27.3%

A few entries again (series 3):
Compound	nuclei count
O=C(O)P(=O)(O)O	1.75 z-score
CN(C)C(=O)NC1(c2ccccc2)CCN(CCC[C@]2(c3ccc(Cl)c(Cl)c3)CCCN(C(=O)c3ccccc3)C2)CC1	-6.37 z-score
CCc1nc2c(o1)CC(c1ccc(C)cc1C)CC2=O (racemic)	0.771 z-score
Cc1nc2c(O)cccc2c(=O)[nH]1	1 z-score
